Experimental data from different studies.
Each numbered part is a random draw from the data of one study; scales do not carry over between parts. “And” joins repeats or separate records; there may be more than shown.
Sequence of UniProt P31152 (whole entry, looked up): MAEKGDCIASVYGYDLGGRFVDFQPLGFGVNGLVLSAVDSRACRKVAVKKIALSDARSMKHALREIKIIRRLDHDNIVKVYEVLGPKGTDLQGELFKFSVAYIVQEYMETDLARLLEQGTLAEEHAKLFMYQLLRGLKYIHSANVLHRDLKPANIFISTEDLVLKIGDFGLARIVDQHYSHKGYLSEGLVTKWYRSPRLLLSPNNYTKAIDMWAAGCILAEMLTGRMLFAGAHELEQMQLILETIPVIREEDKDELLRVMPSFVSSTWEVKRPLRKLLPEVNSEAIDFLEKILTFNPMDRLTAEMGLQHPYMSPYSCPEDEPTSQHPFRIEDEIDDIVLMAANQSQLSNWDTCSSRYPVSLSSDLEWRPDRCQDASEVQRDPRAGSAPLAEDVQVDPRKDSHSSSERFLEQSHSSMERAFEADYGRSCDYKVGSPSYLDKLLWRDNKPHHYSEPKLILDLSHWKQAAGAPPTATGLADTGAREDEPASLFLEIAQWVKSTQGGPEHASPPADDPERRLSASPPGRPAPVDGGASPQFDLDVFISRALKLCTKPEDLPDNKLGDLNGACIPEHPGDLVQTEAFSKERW

Set 1
Target: Vascular endothelial growth factor receptor 3 (FLT4, Homo sapiens, UniProt P35916)
Sequence of UniProt P35916 (whole entry, looked up): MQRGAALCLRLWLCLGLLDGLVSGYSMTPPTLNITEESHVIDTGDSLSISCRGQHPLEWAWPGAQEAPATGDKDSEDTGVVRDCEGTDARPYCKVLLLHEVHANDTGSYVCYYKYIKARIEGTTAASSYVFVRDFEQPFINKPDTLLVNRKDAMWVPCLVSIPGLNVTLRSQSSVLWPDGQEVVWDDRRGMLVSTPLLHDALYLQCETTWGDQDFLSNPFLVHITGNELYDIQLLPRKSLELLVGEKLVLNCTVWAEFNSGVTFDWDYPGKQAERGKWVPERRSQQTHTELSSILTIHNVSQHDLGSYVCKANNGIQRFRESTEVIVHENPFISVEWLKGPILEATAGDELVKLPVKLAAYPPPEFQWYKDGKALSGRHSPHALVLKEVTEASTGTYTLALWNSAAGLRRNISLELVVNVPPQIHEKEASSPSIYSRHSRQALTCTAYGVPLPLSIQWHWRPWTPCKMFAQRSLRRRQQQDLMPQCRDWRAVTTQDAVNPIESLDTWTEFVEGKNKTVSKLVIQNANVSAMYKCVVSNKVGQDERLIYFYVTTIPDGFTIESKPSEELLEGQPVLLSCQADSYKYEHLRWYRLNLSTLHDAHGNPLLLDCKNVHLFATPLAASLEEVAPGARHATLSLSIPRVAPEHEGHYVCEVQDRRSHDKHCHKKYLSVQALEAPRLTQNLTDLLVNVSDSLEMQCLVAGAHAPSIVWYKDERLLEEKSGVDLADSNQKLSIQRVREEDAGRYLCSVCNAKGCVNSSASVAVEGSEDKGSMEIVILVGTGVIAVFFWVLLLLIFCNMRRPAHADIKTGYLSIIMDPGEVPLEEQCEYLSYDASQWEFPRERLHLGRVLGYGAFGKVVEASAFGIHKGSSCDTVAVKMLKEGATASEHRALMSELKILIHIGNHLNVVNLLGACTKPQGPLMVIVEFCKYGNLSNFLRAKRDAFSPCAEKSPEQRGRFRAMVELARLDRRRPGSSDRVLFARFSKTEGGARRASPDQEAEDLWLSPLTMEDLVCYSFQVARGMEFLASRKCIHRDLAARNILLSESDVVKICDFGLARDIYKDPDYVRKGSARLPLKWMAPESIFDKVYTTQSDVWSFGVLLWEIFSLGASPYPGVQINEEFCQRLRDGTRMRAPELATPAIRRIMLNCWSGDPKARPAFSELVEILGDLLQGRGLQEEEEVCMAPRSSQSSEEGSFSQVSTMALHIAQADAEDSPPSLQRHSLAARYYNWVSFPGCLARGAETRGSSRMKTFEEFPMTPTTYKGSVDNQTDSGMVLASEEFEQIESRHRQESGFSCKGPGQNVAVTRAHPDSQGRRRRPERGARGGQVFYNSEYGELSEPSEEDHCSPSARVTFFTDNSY
Read-out: enzyme activity
Mode: inhibitor
Concentration: 0.5 µM
Reference: control
CC(=O)c1ccc(N2CCOCC2)cc1O gave a remaining activity of 112%.
With O=S(=O)(NCCNC/C=C/c1ccc(Br)cc1)c1cccc2cnccc12 the remaining activity was 108%.
Nc1nccc(-c2c(-c3ccc(F)cc3)ncn2C2CCNCC2)n1 has a remaining activity of 116%.
Cc1ccc(NC2=CC(=O)c3sc(C)nc3C2=O)cc1 has a remaining activity of 95.7%.
With CCCC(=O)Oc1ccc2[nH]c(C(=O)c3cc4ccccc4[nH]3)cc2c1 the remaining activity was 98.2%.
Nc1nc(Nc2ccc(S(N)(=O)=O)cc2)nn1C(=O)c1c(F)cccc1F has a remaining activity of 38%.
Fc1ccc(-c2nc3n(c2-c2ccncc2)CCS3)cc1 has a remaining activity of 112%.
The remaining activity of CCc1[nH]c(-c2ccc(OC)cc2)nc1-c1ccncc1 is reported as 123%.
The remaining activity of N#CC(=C(N)Sc1ccc(N)cc1)c1ccccc1C(F)(F)F is reported as 99.8%.
CC(C)(C)n1nc(Cc2cccc3ccccc23)c2c(N)ncnc21 has a remaining activity of 79.8%.
With NC(=O)c1ccc(N(C(N)=O)c2c(F)cccc2F)nc1-c1ccc(F)cc1F the remaining activity was 97.5%.
Oc1ccc(Nc2nc(-c3ccc(Cl)cc3)cs2)cc1 has a remaining activity of 101%.
The remaining activity of CC[n+]1c(/C=C/N(C)c2ccccc2)n(-c2ccccc2)c2ccc(-c3nc4ccccc4s3)cc21 is reported as 90.9%.
With Cc1cncc2cccc(S(=O)(=O)N3CCCN(C(=O)CN)C[C@@H]3C)c12 the remaining activity was 113%.
For CSc1nc(-c2ccnc(N[C@@H](C)c3ccccc3)c2)c(-c2ccc(F)cc2)[nH]1 (racemic), the remaining activity was 91.3%.
For O=C1NC(=O)C(c2c[nH]c3ccccc23)=C1c1c[nH]c2ccccc12, the remaining activity was 35.2%.
With CC#CC(=O)Nc1cc2c(Nc3ccc(F)c(Cl)c3)ncnc2cn1 the remaining activity was 92.8%.
The remaining activity of O=C1Cc2c([nH]c3ccc([N+](=O)[O-])cc23)-c2ccccc2N1 is reported as 77.8%.
For COc1ccc(S(=O)(=O)N(CCO)c2ccccc2CN(C)CC=Cc2ccc(Cl)cc2)cc1, the remaining activity was 91%.
Nc1ncnc2c1cnn2-c1ccccc1 gave a remaining activity of 108%.
COc1cc(Nc2c(C#N)cnc3cc(OCCCN4CCN(C)CC4)c(OC)cc23)c(Cl)cc1Cl has a remaining activity of 44.1%.
With Cc1cc(Nc2nc(-c3ccccc3)nc3ccccc23)n[nH]1 the remaining activity was 44.9%.

Set 2
SMILES: CC(=O)N1CCC(c2ccc(C(=O)NC(=N)N)cc2C(F)(F)F)CC1
Read-out: cell-free assay
Method: competition with immobilised ligand
Concentration: 1 µM
For SRPK3 (Homo sapiens, UniProt Q9UPE1): remaining binding read 100%.
For Ribosomal protein S6 kinase alpha-5, C-terminal kinase domain (RPS6KA5, Homo sapiens, UniProt O75582): remaining binding read 97%.
It gave 86% for remaining binding (CDK7 (Homo sapiens, UniProt P50613)).
It gave 100% for remaining binding (PRKACA (Homo sapiens, UniProt P17612)).
PTK2B (Homo sapiens, UniProt Q14289) — remaining binding: 100%.
For PIK3CA (Homo sapiens, UniProt P42336, E545K): remaining binding read 76%.
MAPK6 (Homo sapiens, UniProt Q16659) — remaining binding: 100%.
For SYK (Homo sapiens, UniProt P43405): remaining binding read 100%.
The remaining binding was 100% (PAK5 (Homo sapiens, UniProt Q9P286)).
The remaining binding was 100% (DAPK1 (Homo sapiens, UniProt P53355)).
PIP5K1A (Homo sapiens, UniProt Q99755) — remaining binding: 94%.
The remaining binding was 100% (STK35 (Homo sapiens, UniProt Q8TDR2)).
It gave 100% for remaining binding (STK24 (Homo sapiens, UniProt Q9Y6E0)).
It gave 96% for remaining binding (FES (Homo sapiens, UniProt P07332)).
The remaining binding was 93% (FLT3 (Homo sapiens, UniProt P36888, R834Q)).
It gave 85% for remaining binding (BUB1 (Homo sapiens, UniProt O43683)).
The remaining binding was 100% (CSF1R (Homo sapiens, UniProt P07333)).
PKMYT1 (Homo sapiens, UniProt Q99640) — remaining binding: 100%.
For MAPK4 (Homo sapiens, UniProt P31152): remaining binding read 100%.
For MAPK3 (Homo sapiens, UniProt P27361): remaining binding read 100%.
EPHB6 (Homo sapiens, UniProt O15197) — remaining binding: 100%.
For GRK2 (Homo sapiens, UniProt P25098): remaining binding read 96%.
The remaining binding was 87% (CDK5 (Homo sapiens, UniProt Q00535)).
It gave 100% for remaining binding (SGK1 (Homo sapiens, UniProt O00141)).
It gave 100% for remaining binding (MAP4K3 (Homo sapiens, UniProt Q8IVH8)).

Set 3
Target: Calcium/calmodulin-dependent protein kinase type II subunit alpha (CAMK2A, Homo sapiens, UniProt Q9UQM7)
Sequence of UniProt Q9UQM7 (whole entry, looked up): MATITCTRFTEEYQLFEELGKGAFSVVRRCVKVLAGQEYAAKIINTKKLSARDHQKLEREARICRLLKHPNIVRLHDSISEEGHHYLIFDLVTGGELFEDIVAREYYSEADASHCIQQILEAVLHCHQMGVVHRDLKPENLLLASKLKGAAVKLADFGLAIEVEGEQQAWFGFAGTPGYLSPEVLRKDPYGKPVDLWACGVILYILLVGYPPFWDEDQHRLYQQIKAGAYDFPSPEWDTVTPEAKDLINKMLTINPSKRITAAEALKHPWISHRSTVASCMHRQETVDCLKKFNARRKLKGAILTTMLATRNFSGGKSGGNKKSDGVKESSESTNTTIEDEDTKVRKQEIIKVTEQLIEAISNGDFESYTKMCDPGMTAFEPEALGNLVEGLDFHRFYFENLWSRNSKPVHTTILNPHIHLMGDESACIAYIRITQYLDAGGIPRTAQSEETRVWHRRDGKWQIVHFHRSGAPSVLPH
Read-out: enzyme activity
Mode: inhibitor
Concentration: 10 µM
CCCCCCCC/C=C\CCCCCCCC(=O)OC has an inhibition of 3%.
With c1ccc2c(Cc3c[nH]c4ccccc34)c[nH]c2c1 the inhibition was 26%.
For CC/C=C/C=C\CCCCCCCCOC(C)=O, the inhibition was -30%.
NC(=O)NO gave an inhibition of -12%.
For O=C1C[C@@H](c2ccc(O[C@@H]3O[C@H](CO)[C@@H](O)[C@H](O)[C@H]3O)cc2)Oc2cc(O)ccc21, the inhibition was -26%.
For COc1ccc2[nH]cc(CCNC(C)=O)c2c1, the inhibition was 4%.
CCCCCCCCCCCC(=O)O[C@H](CC(=O)[O-])C[N+](C)(C)C gave an inhibition of -28%.
The inhibition of OC[C@H]1O[C@@H](n2cnc3c2NC=NC[C@H]3O)C[C@@H]1O is reported as -3%.
For C[C@H](CCC(=O)NCCS(=O)(=O)O)[C@H]1CC[C@H]2[C@@H]3C[C@H](O)[C@@H]4C[C@H](O)CC[C@]4(C)[C@H]3CC[C@]12C, the inhibition was -16%.
COC(=O)C1CCCCC1 has an inhibition of -3%.
For CC[C@@H]1[C@H]2CCCCN3[C@H]2[C@H](C[C@H]3[C@@H]2C[C@H](C)C(=O)O2)[C@@H]2[C@H]1OC(=O)[C@H]2C, the inhibition was 0%.
OCCc1c[nH]c2ccc(O)cc12 gave an inhibition of -20%.
For COc1cc(C)c2c(=O)c(-c3ccccc3)coc2c1, the inhibition was -5%.

Set 4
Target: DNA polymerase theta, ATPase domain (POLQ, Homo sapiens, UniProt O75417)
Sequence of UniProt O75417 (whole entry, unmodified, looked up): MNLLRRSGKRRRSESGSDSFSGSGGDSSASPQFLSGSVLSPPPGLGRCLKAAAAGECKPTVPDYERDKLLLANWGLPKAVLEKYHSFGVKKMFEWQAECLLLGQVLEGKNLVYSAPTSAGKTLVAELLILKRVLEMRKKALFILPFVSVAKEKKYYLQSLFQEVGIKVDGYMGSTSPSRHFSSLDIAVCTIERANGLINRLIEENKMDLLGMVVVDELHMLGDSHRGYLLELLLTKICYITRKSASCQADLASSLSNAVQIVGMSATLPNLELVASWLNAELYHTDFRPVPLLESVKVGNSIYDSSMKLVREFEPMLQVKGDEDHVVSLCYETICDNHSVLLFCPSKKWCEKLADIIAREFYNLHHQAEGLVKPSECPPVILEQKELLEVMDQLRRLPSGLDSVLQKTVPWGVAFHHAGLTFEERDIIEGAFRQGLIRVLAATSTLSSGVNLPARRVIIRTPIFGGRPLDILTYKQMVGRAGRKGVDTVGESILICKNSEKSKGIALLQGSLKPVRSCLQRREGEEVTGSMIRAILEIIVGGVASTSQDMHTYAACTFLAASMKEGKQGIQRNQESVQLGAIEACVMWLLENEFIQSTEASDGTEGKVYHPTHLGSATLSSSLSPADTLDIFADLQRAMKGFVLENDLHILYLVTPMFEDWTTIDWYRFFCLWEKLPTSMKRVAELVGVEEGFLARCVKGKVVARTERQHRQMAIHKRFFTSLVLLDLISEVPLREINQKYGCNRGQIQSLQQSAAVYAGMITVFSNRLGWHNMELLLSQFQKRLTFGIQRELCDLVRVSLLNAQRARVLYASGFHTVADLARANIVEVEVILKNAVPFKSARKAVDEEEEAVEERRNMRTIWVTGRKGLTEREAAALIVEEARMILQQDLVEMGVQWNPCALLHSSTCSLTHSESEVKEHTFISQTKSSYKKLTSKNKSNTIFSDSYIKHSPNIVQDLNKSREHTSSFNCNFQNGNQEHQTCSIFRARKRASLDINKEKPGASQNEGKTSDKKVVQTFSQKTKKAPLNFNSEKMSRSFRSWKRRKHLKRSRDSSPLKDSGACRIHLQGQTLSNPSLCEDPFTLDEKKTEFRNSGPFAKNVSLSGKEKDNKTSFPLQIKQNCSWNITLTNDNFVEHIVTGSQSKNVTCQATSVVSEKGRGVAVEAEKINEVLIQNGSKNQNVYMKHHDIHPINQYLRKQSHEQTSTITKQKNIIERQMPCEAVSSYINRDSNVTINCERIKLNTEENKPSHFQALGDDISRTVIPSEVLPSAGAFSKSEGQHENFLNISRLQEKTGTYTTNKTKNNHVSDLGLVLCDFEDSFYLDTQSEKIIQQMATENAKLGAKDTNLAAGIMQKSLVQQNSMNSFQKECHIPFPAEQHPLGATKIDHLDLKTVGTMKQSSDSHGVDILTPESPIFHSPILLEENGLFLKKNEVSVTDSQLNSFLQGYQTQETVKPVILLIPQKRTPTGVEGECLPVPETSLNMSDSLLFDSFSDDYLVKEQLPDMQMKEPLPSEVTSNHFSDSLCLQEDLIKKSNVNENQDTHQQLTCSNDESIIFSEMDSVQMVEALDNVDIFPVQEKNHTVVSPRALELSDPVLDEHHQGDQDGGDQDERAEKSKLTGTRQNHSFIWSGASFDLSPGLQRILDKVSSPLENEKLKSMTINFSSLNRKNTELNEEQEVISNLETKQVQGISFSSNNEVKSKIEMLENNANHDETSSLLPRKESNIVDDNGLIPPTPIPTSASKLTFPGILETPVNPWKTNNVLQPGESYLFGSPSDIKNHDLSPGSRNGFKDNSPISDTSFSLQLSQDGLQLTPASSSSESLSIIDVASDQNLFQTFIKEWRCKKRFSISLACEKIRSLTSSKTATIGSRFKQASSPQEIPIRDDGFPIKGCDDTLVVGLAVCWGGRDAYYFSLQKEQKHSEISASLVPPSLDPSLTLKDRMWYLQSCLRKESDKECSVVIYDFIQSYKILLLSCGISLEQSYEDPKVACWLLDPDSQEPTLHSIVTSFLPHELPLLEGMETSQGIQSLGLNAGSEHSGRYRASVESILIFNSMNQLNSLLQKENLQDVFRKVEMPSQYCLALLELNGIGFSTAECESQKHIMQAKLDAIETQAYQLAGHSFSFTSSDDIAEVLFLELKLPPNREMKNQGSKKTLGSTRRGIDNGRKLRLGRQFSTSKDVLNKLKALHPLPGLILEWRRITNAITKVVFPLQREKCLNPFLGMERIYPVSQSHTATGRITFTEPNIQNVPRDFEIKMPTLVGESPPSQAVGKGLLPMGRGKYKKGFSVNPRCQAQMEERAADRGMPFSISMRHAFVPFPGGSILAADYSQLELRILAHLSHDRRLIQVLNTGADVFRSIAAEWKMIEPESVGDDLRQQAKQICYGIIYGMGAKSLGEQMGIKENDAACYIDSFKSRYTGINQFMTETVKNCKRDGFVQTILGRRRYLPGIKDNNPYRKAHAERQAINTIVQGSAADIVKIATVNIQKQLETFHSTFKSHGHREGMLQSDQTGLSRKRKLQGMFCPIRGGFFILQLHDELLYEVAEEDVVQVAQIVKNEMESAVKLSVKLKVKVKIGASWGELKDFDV
Read-out: enzyme activity
Mode: inhibitor
Concentration: 77 µM
Reference: untreated
For COc1cccc(NC(=O)/C=C/c2ccc(Cl)cc2)c1, the remaining activity was 97.3%.
With C=C1C[C@@]2(O)O[C@@]3(C[C@H]2C(C)C)[C@@H](C)CC[C@@H]13 the remaining activity was 101%.
O=C(c1cc(O)c(O)c([N+](=O)[O-])c1)c1ccccc1F gave a remaining activity of 87.1%.
The remaining activity of Fc1ccc(-c2nc3n(c2-c2ccncc2)CCS3)cc1 is reported as 95.6%.
For Cc1ccc2nc(NCCN)c3ncc(C)n3c2c1, the remaining activity was 98%.
The remaining activity of NCCSSCCN is reported as 104%.
The remaining activity of CC(=O)Nc1ccccc1 is reported as 99.9%.
The remaining activity of CCN(C(=O)c1c(O)c2c(Cl)cccc2n(C)c1=O)c1ccccc1 is reported as 84%.
The remaining activity of Oc1cc(O)c(Cl)cn1 is reported as 98.2%.
For CC(C)c1noc(N2CCC(COc3ccc(-c4ccc(S(C)(=O)=O)cc4)nc3)CC2)n1, the remaining activity was 97.9%.
The remaining activity of NS(=O)(=O)c1cc2c(cc1Cl)NC(C1CC3C=CC1C3)NS2(=O)=O (stereo not shown) is reported as 101%.
Cn1c(=O)c2nc[nH]c2n(C)c1=O has a remaining activity of 93% and 111%.
For NC[C@H]1O[C@@H](n2cnc3c(N)ncnc32)[C@H](O)[C@@H]1O, the remaining activity was 97.2%.
CC(C(=O)O)c1ccc(CC2CCCC2=O)cc1 (stereo not shown) gave a remaining activity of 105%.
CCCCCCCCCCCCCCCCCCN(CCCCCCCCCCCCCCCCCC)CCCN(CCO)CCO gave a remaining activity of 108%.
COc1cc(C)c(/C=C/C(C)=C/C=C/C(C)=C/C(=O)O)c(C)c1C gave a remaining activity of 99.3%.
CC(N)=O gave a remaining activity of 89.5%.
CCOC(=O)[C@]12CC1/C(=N\O)c1ccccc1O2 (stereo partly shown) gave a remaining activity of 100%.
For COc1cc(C(C)=O)ccc1OCCCN1CCC(c2noc3cc(F)ccc23)CC1, the remaining activity was 112%.
The remaining activity of O=C(O)C[C@H](O)C[C@H](O)/C=C/c1c(C2CC2)nc2ccccc2c1-c1ccc(F)cc1 is reported as 94.4%.
The remaining activity of COc1cc2ncnc(Nc3ccc(Cl)cc3Cl)c2cc1OC is reported as 88.1%.
For O=C1Cc2c([nH]c3ccc([N+](=O)[O-])cc23)-c2ccccc2N1, the remaining activity was 93.6%.

Some of these lines once more (set 4):
The remaining activity of CC(=O)Nc1ccccc1 is reported as 99.9%.
The remaining activity of CCN(C(=O)c1c(O)c2c(Cl)cccc2n(C)c1=O)c1ccccc1 is reported as 84%.
The remaining activity of Oc1cc(O)c(Cl)cn1 is reported as 98.2%.
For CC(C)c1noc(N2CCC(COc3ccc(-c4ccc(S(C)(=O)=O)cc4)nc3)CC2)n1, the remaining activity was 97.9%.
The remaining activity of NS(=O)(=O)c1cc2c(cc1Cl)NC(C1CC3C=CC1C3)NS2(=O)=O (stereo not shown) is reported as 101%.
Cn1c(=O)c2nc[nH]c2n(C)c1=O has a remaining activity of 93% and 111%.
For NC[C@H]1O[C@@H](n2cnc3c(N)ncnc32)[C@H](O)[C@@H]1O, the remaining activity was 97.2%.
CC(C(=O)O)c1ccc(CC2CCCC2=O)cc1 (stereo not shown) gave a remaining activity of 105%.
CCCCCCCCCCCCCCCCCCN(CCCCCCCCCCCCCCCCCC)CCCN(CCO)CCO gave a remaining activity of 108%.
COc1cc(C)c(/C=C/C(C)=C/C=C/C(C)=C/C(=O)O)c(C)c1C gave a remaining activity of 99.3%.
CC(N)=O gave a remaining activity of 89.5%.
CCOC(=O)[C@]12CC1/C(=N\O)c1ccccc1O2 (stereo partly shown) gave a remaining activity of 100%.
